Results gathered from unrelated publications.
Numbered parts are unrelated; each lists some results of a single study.

Block 1 — technique: protein binding microarray; form: double-stranded DNA, one strand shown; matrix: in vitro; concentration: not given; relative to: not given; reading: higher = stronger binding
Target: Histone acetyltransferase KAT6A, winged helix 2, GST fusion (KAT6A, Homo sapiens, UniProt Q92794, residues 85-181)
Notes: 8-mer, flanks averaged, mean of 2 arrays, mostly near background
Construct (chain): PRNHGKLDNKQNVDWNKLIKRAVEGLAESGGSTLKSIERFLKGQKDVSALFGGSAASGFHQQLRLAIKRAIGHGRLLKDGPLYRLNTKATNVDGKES
`GGGGTGCA` gave an E-score of 0.0596.
For `CTATAGTA`, the E-score was -0.0263.
With `GCCCCTGA` the E-score was 0.118.
`AAGCTCTG` has an E-score of -0.0203.
The E-score of `CTTGTAAC` is reported as 0.0868.
For `ACCGGCAG`, the E-score was 0.0124.
For `AGGAGAAT`, the E-score was -0.126.

Block 2 — technique: aptamer microarray, sandwich; form: DNA with 2'F-ANA; matrix: in vitro; concentration: 200 nM; with: Cy3 exosite-II aptamer, 400 nM; reading: higher = stronger binding; sequence: GGTTGGTGTGGTTGG
Target: Prothrombin, mature alpha-thrombin (F2, Homo sapiens, UniProt P00734)
Notes: whole 15-mer aptamer, many near background
`2'F-ANA at 1 2 3 4 5 7 8 13 14 15` — result for “mean fluorescence intensity”: 46.2 a.u.
Under “mean fluorescence intensity”, `2'F-ANA at 1 4 5 8 9 11 15` is recorded as 110 a.u.
For `2'F-ANA at 1 6 8 11 12 14 15`, “mean fluorescence intensity” read 70.7 a.u.
`2'F-ANA at 1 2 3 6 7 8 10 12 14 15`: “mean fluorescence intensity” 53.6 a.u.
`2'F-ANA at 2 3 4 8 9 10 11 14 15`: “mean fluorescence intensity” 171 a.u.
For `2'F-ANA at 1 4 5 8 12 13 14`, “mean fluorescence intensity” read 73 a.u.
`2'F-ANA at 1 2 3 4 5 6 7 9 10 11 12 13 14 15` — result for “mean fluorescence intensity”: 52 a.u.
For `2'F-ANA at 2 6 7 8 9 11 15`, “mean fluorescence intensity” read 343 a.u.
`2'F-ANA at 1 2 3 4 5 8 10 12 14 15` — result for “mean fluorescence intensity”: 89.2 a.u.

Block 3 — technique: universal PBM; form: double-stranded DNA, one strand shown; matrix: in vitro; concentration: 600 nM; reading: higher = stronger binding
Target: Sal-like protein 4, full length isoform A (SALL4, Homo sapiens, UniProt Q9UJQ4, residues 1-1053)
UniProt Q9UJQ4, sequence (whole entry, looked up): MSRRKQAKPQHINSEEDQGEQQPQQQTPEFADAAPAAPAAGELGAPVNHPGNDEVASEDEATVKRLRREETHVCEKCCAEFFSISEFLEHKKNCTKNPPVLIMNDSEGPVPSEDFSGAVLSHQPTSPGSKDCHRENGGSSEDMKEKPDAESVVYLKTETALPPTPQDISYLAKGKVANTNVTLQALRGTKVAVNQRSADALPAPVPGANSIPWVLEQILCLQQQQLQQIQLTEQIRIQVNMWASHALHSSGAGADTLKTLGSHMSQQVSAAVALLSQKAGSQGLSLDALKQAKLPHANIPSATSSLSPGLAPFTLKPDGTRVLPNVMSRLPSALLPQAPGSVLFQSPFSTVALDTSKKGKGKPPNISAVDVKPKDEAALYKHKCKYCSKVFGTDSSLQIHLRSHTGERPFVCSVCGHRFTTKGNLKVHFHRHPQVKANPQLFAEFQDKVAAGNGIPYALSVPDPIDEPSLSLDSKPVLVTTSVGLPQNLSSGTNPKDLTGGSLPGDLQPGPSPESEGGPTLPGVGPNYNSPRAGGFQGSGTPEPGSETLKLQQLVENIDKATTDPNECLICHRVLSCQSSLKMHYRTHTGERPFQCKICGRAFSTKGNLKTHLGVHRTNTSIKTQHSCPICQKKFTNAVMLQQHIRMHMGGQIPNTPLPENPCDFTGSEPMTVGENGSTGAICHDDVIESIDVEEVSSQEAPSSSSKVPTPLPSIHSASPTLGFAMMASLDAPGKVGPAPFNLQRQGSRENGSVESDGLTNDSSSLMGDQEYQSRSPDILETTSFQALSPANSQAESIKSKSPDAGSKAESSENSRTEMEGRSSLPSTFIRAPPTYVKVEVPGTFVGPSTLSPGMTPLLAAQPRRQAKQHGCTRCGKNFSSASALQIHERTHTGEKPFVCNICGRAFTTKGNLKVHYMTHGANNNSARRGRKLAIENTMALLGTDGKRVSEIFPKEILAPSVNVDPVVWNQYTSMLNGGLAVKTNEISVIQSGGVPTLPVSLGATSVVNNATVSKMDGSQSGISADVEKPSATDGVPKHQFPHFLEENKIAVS
Notes: 8-mer, flanks averaged, mean of replicates
With `ATCCGTTG` the E-score was -0.0387.
`CATTTACA` gave an E-score of 0.177.
For `AAAAGCTG`, the E-score was 0.0362.
The E-score of `GTGCAAGA` is reported as -0.00159.
With `AGTAATGG` the E-score was 0.119.
With `CAGACTGA` the E-score was -0.1.
With `GTACGATA` the E-score was 0.293.
With `ACCTACGA` the E-score was 0.0721.

Other studies, line by line
With `PhoQ, residues 284 288 289 292 302 303 ALVSVA` the fold induction was 1.17 (PhoP, residues 12 14 15 18 19 NFCKL (Escherichia coli, UniProt P23836); Sort-seq, refers to: YFP reporter; E. coli; PhoQ-PhoP variant library, with: 10 µM Mg2+; relative to: high Mg2+ state, higher = stronger signaling).
